Experimental data from different studies.
Each line is one published result; not all experiments were run side by side. Numbers after ± are the reported error.

Under “cis isomer content”, `COc1ccc(N=Nc2ccc(NC(=O)CCCCCCC(=O)NO)cc2)cc1` is recorded as 97% (1H NMR; DMSO; irradiation 365 nm).
`CCCCC[C@H]1C(=O)N(C)[C@H](C)C(=O)N(C)[C@@H](CCCCC)C(=O)N(C)[C@H](C)C(=O)N(C)[C@@H](CCCCC)C(=O)N(C)[C@H](C)C(=O)N(C)[C@@H](CCCCC)C(=O)N(C)[C@H](C)C(=O)N1C` gave a Papp A→B of 1.99 ×10⁻⁶ cm/s (Caco-2; 10 µM).
`CCCCCCCCCCCCC(=O)O.O=C1CCCC2C3CCCN4CCCC(CN12)C34` (stereo not drawn): “standard enthalpy of micellization” -0.657 kcal/mol (electrical conductivity; water; 313.15 K, critical micelle concentration).
With `CC(C)C[C@H](NC(=O)[C@H](CCCCN)NC(=O)[C@H](CCC(=O)O)NC(=O)[C@H](C)NC(=O)[C@@H](NC(=O)[C@H](CCCCN)NC(=O)[C@H](CC(=O)O)NC(=O)[C@H](Cc1ccc(O)cc1)NC(=O)[C@H](Cc1ccccc1)NC(=O)[C@H](C)NC(=O)[C@H](CCCCN)NC(=O)[C@H](CC(C)C)NC(=O)[C@H](Cc1c[nH]c2ccccc12)NC(=O)[C@@H](N)CC(=O)O)C(C)C)C(=O)N[C@@H](CCCCN)C(=O)N[C@@H](CCC(=O)O)C(=O)N[C@@H](C)C(=O)N[C@@H](Cc1ccccc1)C(=O)N1CCC[C@H]1C(=O)N[C@@H](CC(=O)O)C(=O)N[C@@H](Cc1c[nH]c2ccccc12)C(=O)N[C@@H](C)C(=O)N[C@@H](CCCCN)C(=O)N[C@@H](C)C(=O)N[C@@H](C)C(=O)N[C@@H](Cc1ccc(O)cc1)C(=O)N[C@@H](CC(=O)O)C(=O)N[C@@H](CCCCN)C(=O)N[C@@H](C)C(=O)N[C@@H](C)C(=O)N[C@@H](CCC(=O)O)C(=O)N[C@@H](CCCCN)C(=O)N[C@@H](C)C(=O)N[C@@H](CCCCN)C(=O)N[C@@H](CCC(=O)O)C(=O)N[C@@H](C)C(=O)N[C@@H](C)C(=O)O` the AUC(0-last) was 1990 µg·h/mL (cynomolgus monkey male, plasma; intravenous infusion, 25 mg/kg every other day, day 27).
`CCCCCc1cc(O)c2c(c1)OC(C)(C)C1CCC(C(=O)OC3OC(C(=O)O)C(O)C(O)C3O)=CC21` (stereo not drawn) gave an unbound fraction of 0.45 ± 0.061 (tube adsorption method; HEK293 microsome incubation; 50 µM, 30 min).
The tracer uptake of `CN[C@](C)(C[18F])C(=O)O` is reported as 1.9 %ID/g (mouse, bone; 1 h, tumour-bearing).
For `COc1ccc(C)cc1NC(=O)OC1CC2CCCC(C1)N2Cc1ccc(CC[18F])cc1` (stereo not drawn), the tracer uptake was 12.6 %ID/g (mouse, fat; 2 h, tumour-bearing).
`[11CH3]n1c(=O)n(CCCO)c(=O)c2c1nc(Oc1cccc(OC(F)(F)F)c1)n2Cc1ccc(Cl)cc1`: “brain uptake ratio” 2.04 (Sprague Dawley rat, brain; baseline: 5 min over 60 min).
For `Cc1ccc(C(C)C)cc1.Cn1ccnc1CNCCNc1ccnc2cc(Cl)ccc12.[Cl-].[Cl][Ru+]`, “distribution coefficient D” read 0.007 ± 0.002 (shake-flask method; water/n-octanol; pH 4.9).
For `O=C([O-])C[N+]12CC(=O)[O][Re-2]1[O]P(=O)([O-])C2.[C-]#[O+].[C-]#[O+].[C-]#[O+]` (stereo not drawn), “isomer fraction at equilibrium” read 19% (HPLC; aqueous solution; 1 d, pH 2, room temperature).
With `C(#Cc1cncc(OC[C@@H]2CCN2)c1)c1ccccc1` the Papp A→B was 21.1 ×10⁻⁶ cm/s (Caco-2; 100 µM, 2 h, pH 7.4).
The Tmax of `CCc1c2c(nc3ccc(OC4OC(C(=O)O)C(O)C(O)C4O)cc13)-c1cc3c(c(=O)n1C2)COC(=O)C3(O)CC` (stereo not drawn) is reported as 8 h (human patients, plasma; intravenous, 24 mg/m^2 of parent drug).
`CC[C@H](C)[C@H](NC(=O)[C@H](CCCNC(=N)N)NC(=O)[C@H](CCCCN)NC(=O)[C@H](CC(C)C)NC(=O)[C@H](CC(C)C)NC(=O)CNC(=O)[C@H](Cc1c[nH]cn1)NC(=O)[C@H](C)NC(=O)[C@@H](N)CC(=O)O)C(=O)N[C@@H](CCCCN)C(=O)N[C@H](C(=O)N[C@@H](CC(C)C)C(=O)N[C@@H](CC(C)C)C(N)=O)[C@@H](C)O` gave an HD10 of 64 µM (haemolysis; human red blood cells; 1 h).
`C/C=C/C=C/C/C=C/CCCCCCCc1cccc(O)c1O` gave a tissue concentration of 11600 ± 1450 ng/g (female Kunming mice, tumour-bearing, spleen; intravenous, 10 mg/kg, 0.5 h).
For `N=C(N)NCc1ccc(C(=O)NCCCC[C@H](NC(=O)N[C@@H](CCC(=O)O)C(=O)O)C(=O)O)cc1[211At]`, the tissue uptake was 77.7 ± 38.8 %ID/g (SCID mouse, PC-3 xenografts, kidneys; 4 h).
`CN(C)C(CNC(=O)Nc1cc(C(F)(F)F)ccc1N1CCOCC1)c1ccncc1` (stereo not drawn): “serum alkaline phosphatase” 72 U/L (mouse, serum; intraperitoneal, 120 mg/kg single dose).
`CC(C)C[C@@H](NC(=O)[C@@H](CCCCN)NC(=O)CNC(=O)CNC(=O)[C@@H]1CSSC[C@H](N)C(=O)NCC(=O)N[C@@H](CCCNC(=N)N)C(=O)N[C@@H](CCCNC(=N)N)C(=O)N[C@@H](C)C(=O)NCC(=O)NCC(=O)N[C@@H](CO)C(=O)N1)C(=O)N[C@H](C)C(=O)N[C@H](CCCCN)C(=O)N[C@H](CC(C)C)C(=O)N[C@H](C)C(=O)N[C@H](CCCCN)C(=O)N[C@H](CCCCN)C(=O)N[C@H](CC(C)C)C(=O)N[C@H](C)C(=O)N[C@H](CCCCN)C(=O)N[C@H](CC(C)C)C(=O)N[C@H](C)C(=O)N[C@H](CCCCN)C(=O)O`: “elimination rate constant” 1.03 ± 0.22 h⁻¹ (cynomolgus monkey; intravenous infusion, 9 mg/kg, 2 h infusion).
For `CC(C)(CCCC/C=C/CCCCCC(C)(C)C(=O)O)C(=O)O`, the clearance was 0.13 mL/min/kg (beagle dog, plasma; intravenous, 5 mg/kg).
`CCC[C@@H]1O[C@@H]2C[C@H]3[C@@H]4C[C@H](F)C5=CC(=O)CC[C@]5(C)[C@@]4(F)[C@@H](O)C[C@]3(C)[C@]2(C(=O)CO)O1` has an AUC of 0.072 µM·h (measured: parent steroid; CD1 mice, plasma; intravenous, 0.15 mg/kg, together with: budesonide 0.2 mg/kg).
Under “adverse drug reactions”, `[2H]C([2H])([2H])C([2H])([2H])C([2H])([2H])OC(C(=O)OC1CCNCC1)(c1ccccc1)c1ccccc1` is recorded as 0% (measured: wound; healthy Japanese male; oral, 10 mg, 16 days, multiple ascending dose).
For `CSCC[C@@H]1NC(=O)[C@@H]2CSSC[C@H](NC(=O)[C@H](CO)NC(=O)[C@H](C)N)C(=O)N[C@@H](CCCNC(=N)N)C(=O)N[C@@H]([C@@H](C)O)C(=O)N3CCC[C@H]3C(=O)N[C@@H](CCCCN)C(=O)N[C@@H](CC(=O)O)C(=O)N[C@H]3CSSC[C@H](NC(=O)[C@H](CCCCN)NC(=O)[C@H](CCCNC(=N)N)NC(=O)[C@H](CC(N)=O)NC1=O)C(=O)N[C@@H](CCCCN)C(=O)N[C@H]1CSSC[C@H](NC(=O)[C@@H]4CCCN4C(=O)[C@H](CC(=O)O)NC(=O)[C@H](C)NC3=O)C(=O)N[C@@H](C)C(=O)N[C@@H](CCCCN)C(=O)N[C@@H](CCC(=O)O)C(=O)N[C@@H]([C@@H](C)O)C(=O)NCC(=O)N[C@@H](CSSC[C@@H](C(N)=O)NC(=O)[C@H](CCCNC(=N)N)NC(=O)[C@H](CC(N)=O)NC1=O)C(=O)N1CCC[C@H]1C(=O)N[C@@H](Cc1ccc(O)cc1)C(=O)NCC(=O)N[C@@H](CCCCN)C(=O)N2`, the gamma-glutamyl transferase was 0.2 U/L (DA rat, pristane-induced arthritis, serum; subcutaneous, 0.1 mg/kg once weekly, end of 21-day trial).
`COC(=O)C[C@](O)(CCCC(C)(C)OC(C)=O)C(=O)O[C@@H]1C(OC)=C[C@]23CCCN2CCc2cc4c(cc2[C@H]13)OCO4` gave a tissue concentration of 228 ng/mL (CD1 mouse, pancreas; oral, 1 mg/kg, 2 h).
`COc1ccc(NC(=O)Cn2c(=O)c3ccccc3n(CC(=O)Nc3cc([125I])c(OC)cc3OC)c2=O)cc1` gave a tracer uptake of 0.22 %ID/g (rat, lung; intravenous, 30 min).
With `CN(C)c1ccc(C(=O)NCCCCN2CCN(c3ccccc3O[11CH3])CC2)cc1` the uptake ratio was 0.97 (male Sprague Dawley rat, kidney; iv, dose not given, together with: cyclosporin A pretreatment; baseline: cyclosporin A over untreated).
With `CC[C@H](C)[C@H](NC(=O)[C@H](C)NC(=O)CNC(=O)[C@@H](N)CCSC)C(=O)N[C@@H](C)C(=O)N[C@@H](CCCCN)C(=O)N[C@@H](CC(C)C)C(=O)N[C@H](C(=O)N[C@@H](C)C(=O)N[C@@H](CCCCN)C(=O)N[C@@H](Cc1ccccc1)C(=O)NCC(=O)N[C@@H](Cc1c[nH]c2ccccc12)C(=O)N1CCC[C@H]1C(=O)N[C@@H](Cc1ccccc1)C(=O)N[C@H](C(=O)N[C@@H](CCCCN)C(=O)N[C@@H](CCCCN)C(=O)N[C@@H](Cc1ccccc1)C(=O)N[C@@H](Cc1ccc(O)cc1)C(=O)N[C@@H](CCCCN)C(=O)N[C@@H](CCC(N)=O)C(=O)N[C@H](C(=O)N[C@@H](CCSC)C(=O)N[C@@H](CCC(N)=O)C(=O)N[C@@H](Cc1ccccc1)C(=O)N[C@H](C(=O)NCC(=O)N[C@@H](CCC(N)=O)C(=O)NCC(=O)N[C@@H](Cc1c[nH]c2ccccc12)C(=O)N[C@H](C(=O)N[C@H](C(=O)N[C@@H](CC(=O)O)C(=O)N[C@@H](CCC(N)=O)C(=O)N[C@H](C(=O)N[C@@H](CCC(=O)O)C(=O)N[C@@H](CCCCN)C(=O)N[C@@H](Cc1c[nH]c2ccccc12)C(=O)N[C@@H](CC(C)C)C(=O)N[C@@H](CCCCN)C(=O)N[C@@H](CCCNC(=N)N)C(=O)N[C@@H](Cc1c[nH]cn1)C(=O)O)[C@@H](C)CC)[C@@H](C)CC)[C@@H](C)O)[C@@H](C)CC)[C@@H](C)CC)[C@@H](C)CC)C(C)C` the Tm was 48.2 ± 0.3 °C (thermal unfolding, far-UV CD; 10 mM sodium phosphate; 5-20 µM, pH 7.2).
With `CSCC[C@H](NC(=O)CNC(=O)[C@H](CC(=O)O)NC(=O)[C@@H](NC(=O)[C@@H](NC(=O)[C@@H](NC(=O)CNC(=O)[C@H](CCC(N)=O)NC(=O)[C@H](CCSC)NC(=O)[C@H](CC(=O)O)NC(=O)[C@H](C)NC(=O)[C@H](C)NC(=O)[C@@H](NC(=O)[C@H](CO)NC(=O)[C@@H](N)CC(C)C)[C@@H](C)O)C(C)C)C(C)C)[C@@H](C)O)C(=O)N[C@@H](C)C(=O)N[C@@H](CO)C(=O)NCC(=O)N[C@@H](CC(C)C)C(=O)N[C@@H](CC(=O)O)C(=O)N[C@@H](CCCCN)C(=O)N[C@@H](CC(=O)O)C(=O)N[C@@H](Cc1ccc(O)cc1)C(=O)N[C@@H](CC(C)C)C(=O)N[C@@H](CCCCN)C(=O)N1CCC[C@H]1C(=O)N[C@@H](CC(=O)O)C(=O)N[C@@H](CC(=O)O)C(=O)O` the Cmax was 13700 ng/mL (human, serum; intravenous, 4.16 mg/kg, patients, infusion).
For `C[S]1CC[S]2CC[P](CO)(CO)[99Tc+]12.[C-]#[O+].[C-]#[O+].[C-]#[O+]`, “uptake in blood” read 0 %ID (CF-1 mouse; intravenous, 24 h).
With `N#Cc1c(O)c(Cl)c(Cl)c(C#N)c1Cl` the rosuvastatin Cmax was 3.88 ng/mL (healthy human volunteers, plasma; oral, dose not given, geometric mean, together with: rosuvastatin).
Under “subjects with laryngitis TEAE”, `CC[C@H](C)C(=O)N1CCC(NC(=O)Nc2ccc(OC(F)(F)F)c(F)c2)CC1` is recorded as 0% (healthy volunteers; oral, 24 mg single dose).
`CC(C)[C@H](NC(=O)CNC(=O)[C@H](CCC(N)=O)NC(=O)[C@H](C)N)C(=O)O`: “subjects with adverse events” 50% (mild intensity; human; 20 mg/kg, 3 days, thrice daily dosing).

Some of these lines once more:
`COC(=O)C[C@](O)(CCCC(C)(C)OC(C)=O)C(=O)O[C@@H]1C(OC)=C[C@]23CCCN2CCc2cc4c(cc2[C@H]13)OCO4` gave a tissue concentration of 228 ng/mL (CD1 mouse, pancreas; oral, 1 mg/kg, 2 h).
For `CC(C)(CCCC/C=C/CCCCCC(C)(C)C(=O)O)C(=O)O`, the clearance was 0.13 mL/min/kg (beagle dog, plasma; intravenous, 5 mg/kg).
`CCCCCCCCCCCCC(=O)O.O=C1CCCC2C3CCCN4CCCC(CN12)C34` (stereo not drawn): “standard enthalpy of micellization” -0.657 kcal/mol (electrical conductivity; water; 313.15 K, critical micelle concentration).
With `N#Cc1c(O)c(Cl)c(Cl)c(C#N)c1Cl` the rosuvastatin Cmax was 3.88 ng/mL (healthy human volunteers, plasma; oral, dose not given, geometric mean, together with: rosuvastatin).
